Measured values of several laboratories.
Each line is one published result; not all experiments were run side by side. Numbers after ± are the reported error.
Spike glycoprotein: Spike glycoprotein (Severe acute respiratory syndrome coronavirus, UniProt P59594)
Cacna1b with α2δ, β3 subunits: Voltage-dependent N-type calcium channel subunit alpha-1B, with α2δ, β3 subunits (Cacna1b, Rattus norvegicus, UniProt Q02294)
Spike glycoprotein Beta variant: Spike glycoprotein, Beta variant (Severe acute respiratory syndrome coronavirus 2, UniProt P0DTC2)
Enoyl-[acyl-carrier-protein] reductase [NADH]: Enoyl-[acyl-carrier-protein] reductase [NADH] (Francisella tularensis subsp. tularensis, UniProt Q5NGQ3)

Protein sequences, listed by entry. Tags and fused reporters are not part of them. Lines headed by an entry give the natural chain unless they say otherwise; changes in a name come on top. Residues count along the entry.
UniProt Q02294, whole entry, looked up: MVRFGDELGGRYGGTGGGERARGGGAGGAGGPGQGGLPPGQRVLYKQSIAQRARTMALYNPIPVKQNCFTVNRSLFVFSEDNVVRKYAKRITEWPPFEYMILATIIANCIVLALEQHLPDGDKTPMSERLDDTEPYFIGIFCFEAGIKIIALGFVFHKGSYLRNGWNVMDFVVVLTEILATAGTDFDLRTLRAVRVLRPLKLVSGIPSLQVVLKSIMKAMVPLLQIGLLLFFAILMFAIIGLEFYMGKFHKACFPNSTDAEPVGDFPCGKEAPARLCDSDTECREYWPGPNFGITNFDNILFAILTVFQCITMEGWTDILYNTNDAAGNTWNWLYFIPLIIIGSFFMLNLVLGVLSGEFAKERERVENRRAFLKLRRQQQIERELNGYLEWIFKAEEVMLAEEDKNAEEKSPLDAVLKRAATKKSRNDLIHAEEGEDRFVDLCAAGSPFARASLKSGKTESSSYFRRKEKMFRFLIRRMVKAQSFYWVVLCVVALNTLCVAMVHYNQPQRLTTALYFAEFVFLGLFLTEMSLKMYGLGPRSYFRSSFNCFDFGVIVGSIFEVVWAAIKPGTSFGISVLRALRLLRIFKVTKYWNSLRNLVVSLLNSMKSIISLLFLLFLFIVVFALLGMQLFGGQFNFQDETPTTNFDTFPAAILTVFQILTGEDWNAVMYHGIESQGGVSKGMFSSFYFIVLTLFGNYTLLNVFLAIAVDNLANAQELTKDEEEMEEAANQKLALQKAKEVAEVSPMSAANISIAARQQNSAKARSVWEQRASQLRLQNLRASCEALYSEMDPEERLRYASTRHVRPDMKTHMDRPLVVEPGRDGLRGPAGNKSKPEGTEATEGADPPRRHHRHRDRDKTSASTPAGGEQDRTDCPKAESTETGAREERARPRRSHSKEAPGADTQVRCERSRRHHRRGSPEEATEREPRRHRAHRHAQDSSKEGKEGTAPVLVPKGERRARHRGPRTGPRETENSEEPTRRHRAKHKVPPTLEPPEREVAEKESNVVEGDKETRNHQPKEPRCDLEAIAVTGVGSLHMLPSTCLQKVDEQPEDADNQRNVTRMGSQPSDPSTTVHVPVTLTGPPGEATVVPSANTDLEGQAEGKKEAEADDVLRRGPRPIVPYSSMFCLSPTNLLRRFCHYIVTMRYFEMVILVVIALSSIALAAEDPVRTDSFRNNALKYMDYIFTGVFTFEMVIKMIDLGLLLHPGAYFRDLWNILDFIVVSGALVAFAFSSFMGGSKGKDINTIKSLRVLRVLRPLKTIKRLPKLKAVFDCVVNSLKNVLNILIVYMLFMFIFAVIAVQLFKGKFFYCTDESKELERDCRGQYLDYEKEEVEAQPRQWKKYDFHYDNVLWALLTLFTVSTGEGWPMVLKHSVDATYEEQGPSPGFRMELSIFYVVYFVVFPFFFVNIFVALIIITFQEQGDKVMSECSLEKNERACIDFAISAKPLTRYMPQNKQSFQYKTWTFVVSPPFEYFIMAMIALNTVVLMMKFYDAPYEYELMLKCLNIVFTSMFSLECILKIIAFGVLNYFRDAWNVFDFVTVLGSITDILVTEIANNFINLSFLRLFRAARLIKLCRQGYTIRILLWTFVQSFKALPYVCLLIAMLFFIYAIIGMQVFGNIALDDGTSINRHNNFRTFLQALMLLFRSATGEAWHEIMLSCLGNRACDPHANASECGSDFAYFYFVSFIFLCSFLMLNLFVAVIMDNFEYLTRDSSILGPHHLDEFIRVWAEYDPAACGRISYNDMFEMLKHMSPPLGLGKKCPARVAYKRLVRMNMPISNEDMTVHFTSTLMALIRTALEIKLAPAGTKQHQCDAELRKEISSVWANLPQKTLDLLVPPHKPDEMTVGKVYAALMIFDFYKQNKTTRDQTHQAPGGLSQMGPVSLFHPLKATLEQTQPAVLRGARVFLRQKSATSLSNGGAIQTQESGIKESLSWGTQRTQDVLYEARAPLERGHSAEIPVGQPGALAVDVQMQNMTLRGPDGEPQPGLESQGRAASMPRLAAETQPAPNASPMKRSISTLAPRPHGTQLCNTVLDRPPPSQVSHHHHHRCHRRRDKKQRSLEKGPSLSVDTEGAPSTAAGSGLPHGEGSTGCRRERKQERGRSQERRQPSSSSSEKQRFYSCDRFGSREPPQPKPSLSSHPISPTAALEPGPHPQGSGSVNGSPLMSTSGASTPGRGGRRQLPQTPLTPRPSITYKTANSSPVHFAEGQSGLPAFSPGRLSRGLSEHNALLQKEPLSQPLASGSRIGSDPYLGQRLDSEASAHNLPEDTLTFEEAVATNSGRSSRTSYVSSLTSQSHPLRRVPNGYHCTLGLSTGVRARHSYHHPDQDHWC
UniProt P54634, whole entry, looked up: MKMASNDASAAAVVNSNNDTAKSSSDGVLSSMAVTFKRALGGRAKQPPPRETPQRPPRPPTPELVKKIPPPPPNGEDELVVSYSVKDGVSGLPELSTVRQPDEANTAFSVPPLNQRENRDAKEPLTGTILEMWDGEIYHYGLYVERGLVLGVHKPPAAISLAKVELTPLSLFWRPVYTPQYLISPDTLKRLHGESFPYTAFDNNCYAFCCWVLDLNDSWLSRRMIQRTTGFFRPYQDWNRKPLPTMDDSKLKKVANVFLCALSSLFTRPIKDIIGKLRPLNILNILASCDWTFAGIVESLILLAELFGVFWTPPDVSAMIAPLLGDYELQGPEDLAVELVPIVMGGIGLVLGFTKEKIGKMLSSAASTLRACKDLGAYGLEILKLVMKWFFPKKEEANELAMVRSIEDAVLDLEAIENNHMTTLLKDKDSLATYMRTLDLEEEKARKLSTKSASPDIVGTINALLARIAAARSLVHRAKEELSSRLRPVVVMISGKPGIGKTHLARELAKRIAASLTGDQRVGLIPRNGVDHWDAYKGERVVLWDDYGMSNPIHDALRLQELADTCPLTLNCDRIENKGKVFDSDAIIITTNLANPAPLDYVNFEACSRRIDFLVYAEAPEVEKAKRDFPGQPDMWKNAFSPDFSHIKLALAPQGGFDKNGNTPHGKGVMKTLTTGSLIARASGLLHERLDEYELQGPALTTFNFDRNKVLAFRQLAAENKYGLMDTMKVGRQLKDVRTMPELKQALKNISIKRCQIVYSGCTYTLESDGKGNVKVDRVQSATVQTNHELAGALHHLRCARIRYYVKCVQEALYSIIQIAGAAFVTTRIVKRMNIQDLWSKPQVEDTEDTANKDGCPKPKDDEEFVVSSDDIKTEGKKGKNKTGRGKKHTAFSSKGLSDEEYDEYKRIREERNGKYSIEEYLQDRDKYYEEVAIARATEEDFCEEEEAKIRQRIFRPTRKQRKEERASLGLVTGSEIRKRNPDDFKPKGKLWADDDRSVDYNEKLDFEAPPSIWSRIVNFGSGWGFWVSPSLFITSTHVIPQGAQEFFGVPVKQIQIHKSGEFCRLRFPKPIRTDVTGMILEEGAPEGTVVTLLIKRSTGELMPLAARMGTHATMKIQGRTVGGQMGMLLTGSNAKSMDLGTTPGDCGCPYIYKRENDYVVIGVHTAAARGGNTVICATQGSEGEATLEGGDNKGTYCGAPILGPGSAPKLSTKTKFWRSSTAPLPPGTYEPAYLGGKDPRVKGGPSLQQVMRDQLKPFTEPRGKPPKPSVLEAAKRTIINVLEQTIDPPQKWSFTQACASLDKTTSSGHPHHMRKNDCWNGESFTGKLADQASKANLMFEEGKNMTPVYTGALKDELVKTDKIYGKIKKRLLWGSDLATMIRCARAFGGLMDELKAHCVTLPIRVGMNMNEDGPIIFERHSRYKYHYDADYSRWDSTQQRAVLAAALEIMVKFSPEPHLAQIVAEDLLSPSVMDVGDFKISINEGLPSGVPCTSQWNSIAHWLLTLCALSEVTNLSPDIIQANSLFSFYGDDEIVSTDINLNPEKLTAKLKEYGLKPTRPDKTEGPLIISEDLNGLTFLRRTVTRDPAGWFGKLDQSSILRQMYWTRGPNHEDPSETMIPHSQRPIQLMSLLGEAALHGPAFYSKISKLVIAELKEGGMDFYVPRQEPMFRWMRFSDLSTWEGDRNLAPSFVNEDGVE
UniProt P37136, 32-614 limits assumed: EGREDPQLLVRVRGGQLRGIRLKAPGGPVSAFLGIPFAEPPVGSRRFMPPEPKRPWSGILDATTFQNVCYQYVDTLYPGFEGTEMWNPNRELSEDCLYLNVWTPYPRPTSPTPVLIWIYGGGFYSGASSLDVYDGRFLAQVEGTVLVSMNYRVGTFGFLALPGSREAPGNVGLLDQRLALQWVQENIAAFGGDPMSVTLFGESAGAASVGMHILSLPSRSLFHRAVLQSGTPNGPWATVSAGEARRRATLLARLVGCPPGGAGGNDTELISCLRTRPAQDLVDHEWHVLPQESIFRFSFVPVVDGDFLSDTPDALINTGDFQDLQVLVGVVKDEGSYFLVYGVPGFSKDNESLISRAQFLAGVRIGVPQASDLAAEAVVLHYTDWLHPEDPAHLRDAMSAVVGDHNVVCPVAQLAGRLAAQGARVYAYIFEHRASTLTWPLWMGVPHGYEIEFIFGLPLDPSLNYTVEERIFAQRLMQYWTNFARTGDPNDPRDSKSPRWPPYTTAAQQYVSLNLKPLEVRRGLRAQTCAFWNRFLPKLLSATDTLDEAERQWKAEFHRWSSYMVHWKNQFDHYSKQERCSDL
UniProt P43144, 26-479 limits assumed: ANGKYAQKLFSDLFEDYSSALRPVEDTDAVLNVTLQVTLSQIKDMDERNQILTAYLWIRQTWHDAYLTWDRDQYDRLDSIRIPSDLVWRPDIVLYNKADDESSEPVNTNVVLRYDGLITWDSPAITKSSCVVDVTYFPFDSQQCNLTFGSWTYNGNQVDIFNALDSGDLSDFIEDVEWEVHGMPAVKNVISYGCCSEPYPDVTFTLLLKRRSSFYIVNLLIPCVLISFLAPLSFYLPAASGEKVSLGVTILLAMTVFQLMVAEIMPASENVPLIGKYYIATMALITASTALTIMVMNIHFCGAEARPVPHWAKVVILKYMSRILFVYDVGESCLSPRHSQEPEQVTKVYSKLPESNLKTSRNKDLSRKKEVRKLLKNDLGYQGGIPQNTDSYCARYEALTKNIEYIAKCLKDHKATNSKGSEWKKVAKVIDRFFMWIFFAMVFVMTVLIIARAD
UniProt Q9JLB5, 25-447 limits assumed: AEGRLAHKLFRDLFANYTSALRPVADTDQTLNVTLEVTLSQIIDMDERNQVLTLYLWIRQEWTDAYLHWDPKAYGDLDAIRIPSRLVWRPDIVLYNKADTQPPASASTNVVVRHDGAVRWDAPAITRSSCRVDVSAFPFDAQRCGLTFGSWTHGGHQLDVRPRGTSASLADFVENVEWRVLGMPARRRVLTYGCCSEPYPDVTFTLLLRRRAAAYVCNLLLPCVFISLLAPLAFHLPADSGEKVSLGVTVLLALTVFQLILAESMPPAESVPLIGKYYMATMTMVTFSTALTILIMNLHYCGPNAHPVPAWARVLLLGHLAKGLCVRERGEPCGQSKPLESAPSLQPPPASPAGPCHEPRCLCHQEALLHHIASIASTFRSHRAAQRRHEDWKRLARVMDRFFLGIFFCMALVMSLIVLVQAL
UniProt Q9GZZ6, whole entry, looked up: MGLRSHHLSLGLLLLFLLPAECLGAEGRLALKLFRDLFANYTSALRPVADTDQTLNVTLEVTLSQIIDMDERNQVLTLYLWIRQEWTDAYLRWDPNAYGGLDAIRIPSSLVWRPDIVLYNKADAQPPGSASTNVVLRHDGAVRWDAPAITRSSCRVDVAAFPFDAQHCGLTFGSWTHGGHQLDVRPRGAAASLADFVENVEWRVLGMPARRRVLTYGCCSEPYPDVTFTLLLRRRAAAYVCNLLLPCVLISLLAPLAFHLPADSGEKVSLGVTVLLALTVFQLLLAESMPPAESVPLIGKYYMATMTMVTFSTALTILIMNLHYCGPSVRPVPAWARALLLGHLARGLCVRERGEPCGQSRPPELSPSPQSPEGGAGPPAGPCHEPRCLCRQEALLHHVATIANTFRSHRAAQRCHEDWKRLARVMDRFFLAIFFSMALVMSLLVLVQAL
UniProt Q9UGM1, whole entry, looked up: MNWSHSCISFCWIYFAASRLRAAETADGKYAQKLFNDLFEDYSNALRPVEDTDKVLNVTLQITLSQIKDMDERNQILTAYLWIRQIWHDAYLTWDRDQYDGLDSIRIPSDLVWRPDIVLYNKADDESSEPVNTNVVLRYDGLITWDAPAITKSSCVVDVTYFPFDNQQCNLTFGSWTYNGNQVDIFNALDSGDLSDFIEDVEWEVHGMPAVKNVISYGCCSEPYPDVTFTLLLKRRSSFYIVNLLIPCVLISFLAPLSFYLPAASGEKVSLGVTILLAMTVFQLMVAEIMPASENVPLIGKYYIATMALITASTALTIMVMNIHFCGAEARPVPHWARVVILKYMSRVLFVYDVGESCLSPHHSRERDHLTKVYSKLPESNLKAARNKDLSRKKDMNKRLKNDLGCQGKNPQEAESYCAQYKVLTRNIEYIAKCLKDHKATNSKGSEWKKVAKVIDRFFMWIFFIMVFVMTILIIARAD

| Structure (SMILES) | target | test | test system | conditions | IC50 [nM] |
| --- | --- | --- | --- | --- | --- |
| NC(=O)CCOc1c(SSc2cnn(-c3ccccc3)c(=O)c2OCCC(N)=O)cnn(-c2ccccc2)c1=O | Sortase A (Bacillus anthracis str. H9401, UniProt P0DPQ5) | inhibitor | Bacillus anthracis |  | 11900 ± 700 |
| O=C(NCc1ccccc1)C1C(=O)N(O)C(=O)c2cc([N+](=O)[O-])ccc21 (centres unmarked) | Nucleoprotein, exonuclease domain (N, Machupo virus, UniProt P26578) | inhibitor |  |  | 13600 |
| Cc1cc(C(=O)N[C@@H](Cc2cccc3ccccc23)C(=O)N[C@@H](CC(C)C)C(=O)N[C@H](C=O)C[C@@H]2CCCNC2=O)no1 | Genome polyprotein, 3C-like protease (Lordsdale virus, UniProt P54634) | enzyme activity |  |  | 320 ± 20 |
| CC[C@H](C)[C@@H]1NC(=O)[C@@H]2CSSC[C@H](NC(=O)[C@H](CCCNC(=N)N)NC(=O)[C@@H]3CSSC[C@H](NC1=O)C(=O)N[C@@H]([C@@H](C)O)C(=O)N[C@@H](CCCNC(=N)N)C(=O)NCC(=O)N[C@@H](Cc1ccccc1)C(=O)N3)C(=O)N[C@@H](CC(C)C)C(=O)N[C@H]1CSSC[C@H](NC(=O)[C@H](C(C)C)NC(=O)CNC(=O)[C@H](CCCNC(=N)N)NC(=O)[C@H](CC(C)C)NC1=O)C(=O)N[C@@H](CCCNC(=N)N)C(=O)N2 | Lethal factor (Bacillus anthracis, UniProt P15917) | protease activity |  | crude desalted peptide, no BSA | 505 ± 59 |
| CC[C@H](C)[C@H](NC(=O)[C@H](C)NC(=O)[C@H](CCC(=O)O)NC(=O)[C@H](CCC(=O)O)NC(=O)[C@H](CC(C)C)NC(=O)[C@H](CCCCN)NC(=O)[C@H](CCCCN)NC(=O)[C@H](CCSC)NC(=O)[C@H](CCC(=O)O)NC(=O)[C@H](Cc1ccc(O)cc1)NC(=O)[C@H](CCC(=O)O)NC(=O)[C@H](CC(C)C)NC(=O)[C@H](CC(=O)O)NC(=O)[C@H](CC(C)C)NC(=O)[C@H](Cc1ccccc1)NC(=O)[C@@H](NC(=O)[C@@H](NC(=O)[C@H](CC(N)=O)NC(=O)[C@@H](NC(=O)[C@H](CCC(N)=O)NC(=O)[C@H](CC(=O)O)NC(=O)[C@H](CC(C)C)NC(=O)[C@@H](N)CO)[C@@H](C)CC)C(C)C)[C@@H](C)O)C(=O)N[C@@H](CCCCN)C(=O)N[C@@H](CCCCN)C(=O)N[C@@H](CC(C)C)C(=O)N[C@@H](CCC(=O)O)C(=O)N[C@@H](CCC(=O)O)C(=O)N[C@H](C(=O)N[C@@H](Cc1ccc(O)cc1)C(=O)N[C@H](C(=O)N[C@@H](CC(=O)O)C(=O)N[C@@H](CC(C)C)C(=O)N[C@@H](CCCCN)C(=O)N[C@@H](CCC(=O)O)C(=O)N[C@@H](CC(C)C)C(=O)O)[C@@H](C)CC)[C@@H](C)O | Spike glycoprotein | cell-cell fusion, inhibitor, luciferase fusion | 293T donor, Huh-7 target | 16 h, 37 °C | 298 |
| C[C@@H]1NC(=O)[C@H](CO)NC(=O)CNC(=O)[C@H](CCCCN)NC(=O)[C@H](CCCNC(=N)N)NC(=O)[C@H](CCCCN)NC(=O)[C@@H](N)CSSC[C@@H]2NC(=O)[C@@H]3CSSC[C@@H](C(N)=O)NC(=O)[C@H](CCCCN)NC(=O)CNC(=O)[C@H](CC(N)=O)NC(=O)[C@H](CCCNC(=N)N)NC(=O)[C@H](CSSC[C@H](NC1=O)C(=O)N[C@@H](CCCNC(=N)N)C(=O)N[C@@H](CCCNC(=N)N)C(=O)N[C@@H]([C@@H](C)O)C(=O)N[C@@H](CO)C(=O)N[C@@H](Cc1ccc(O)cc1)C(=O)N[C@@H](CC(=O)O)C(=O)N3)NC(=O)[C@H](CO)NC(=O)CNC(=O)[C@H]([C@@H](C)O)NC2=O | Cacna1b with α2δ, β3 subunits | Ba2+ current, inhibitor, whole-cell patch clamp | HEK293 expressing α2δ and β3 | 22 °C, with: Ba2+ 20 mM | 98 |
| CC[C@H](C)[C@H](NC(=O)[C@H](C)NC(=O)[C@H](CCC(=O)O)NC(=O)[C@H](CCC(=O)O)NC(=O)[C@H](CC(C)C)NC(=O)[C@H](CCCCN)NC(=O)[C@H](CCCCN)NC(=O)[C@H](CCSC)NC(=O)[C@H](CCC(=O)O)NC(=O)[C@H](Cc1ccc(O)cc1)NC(=O)[C@H](CCC(=O)O)NC(=O)[C@H](CC(C)C)NC(=O)[C@H](CC(=O)O)NC(=O)[C@H](CC(C)C)NC(=O)[C@H](Cc1ccccc1)NC(=O)[C@@H](NC(=O)[C@@H](NC(=O)[C@H](CC(N)=O)NC(=O)[C@@H](NC(=O)[C@H](CCC(N)=O)NC(=O)[C@H](CC(=O)O)NC(=O)[C@H](CC(C)C)NC(=O)[C@@H](N)CO)[C@@H](C)CC)C(C)C)[C@@H](C)O)C(=O)N[C@@H](CCCCN)C(=O)N[C@@H](CCCCN)C(=O)N[C@@H](CC(C)C)C(=O)N[C@@H](CCC(=O)O)C(=O)N[C@@H](CCC(=O)O)C(=O)N[C@@H](C)C(=O)N[C@@H](Cc1ccc(O)cc1)C(=O)N[C@H](C(=O)N[C@@H](CC(=O)O)C(=O)N[C@@H](CC(C)C)C(=O)N[C@@H](CCCCN)C(=O)N[C@@H](CCC(=O)O)C(=O)N[C@@H](CC(C)C)C(=O)O)[C@@H](C)CC | Spike glycoprotein Beta variant | cell-cell fusion, inhibitor, luciferase fusion | 293T donor, Huh-7 target | 16 h, 37 °C | 106 |
| CCOc1ccccc1-c1cc2n(n1)C(CS(C)(=O)=O)CNC2=O (centres unmarked) | Polyprotein P1234, nsP2 protease (Chikungunya virus, UniProt Q5XXP4) | FRET |  |  | > 200000 |
| CC[C@H](C)[C@H](NC(=O)[C@H](C)NC(=O)[C@H](CCC(=O)O)NC(=O)[C@H](CCC(=O)O)NC(=O)[C@H](CC(C)C)NC(=O)[C@H](CCCCN)NC(=O)[C@H](CCCCN)NC(=O)[C@H](CCSC)NC(=O)[C@H](CCC(=O)O)NC(=O)[C@H](Cc1ccc(O)cc1)NC(=O)[C@H](CCC(=O)O)NC(=O)[C@H](CC(C)C)NC(=O)[C@H](CC(=O)O)NC(=O)[C@H](CC(C)C)NC(=O)[C@H](Cc1ccccc1)NC(=O)[C@@H](NC(=O)[C@@H](NC(=O)[C@H](CC(N)=O)NC(=O)[C@@H](NC(=O)[C@H](CCC(N)=O)NC(=O)[C@H](CC(=O)O)NC(=O)[C@H](CC(C)C)NC(=O)[C@@H](N)CO)[C@@H](C)CC)C(C)C)[C@@H](C)O)C(=O)N[C@@H](CCCCN)C(=O)N[C@@H](CCCCN)C(=O)N[C@@H](CC(C)C)C(=O)N[C@@H](CCC(=O)O)C(=O)N[C@@H](CCC(=O)O)C(=O)N[C@@H](CO)C(=O)N[C@@H](Cc1ccc(O)cc1)C(=O)N[C@H](C(=O)N[C@@H](CC(=O)O)C(=O)N[C@@H](CC(C)C)C(=O)N[C@@H](CCCCN)C(=O)N[C@@H](CCC(=O)O)C(=O)N[C@@H](CC(C)C)C(=O)O)[C@@H](C)CC | Spike glycoprotein | cell-cell fusion, inhibitor, luciferase fusion | 293T donor, Huh-7 target | 16 h, 37 °C, dual mutations | 17.5 |
| CCOP(=O)(OCC)ON1C(=O)c2cccc3cccc(c23)C1=O | Ache (Rattus norvegicus, UniProt P37136) | enzyme activity, inhibitor, discontinuous Ellman | rat, postnatal day 1, rat skeletal muscle homogenate | 15 min, 37 °C | 20 |
| CCSc1nc2ccccc2n1Cc1ccc(Cl)cc1 | Enoyl-[acyl-carrier-protein] reductase [NADH] |  |  |  | > 100000 |
| c1ccc(-c2ccc3c(n2)sc2c(N4CCNCC4)ncnc23)cc1 | Beta-glucuronidase (bglR, Clostridium perfringens, UniProt Q8XP19) | enzyme activity, inhibitor |  |  | 15 ± 8 |
| CN1C(=CC=CC=CC2=[N+](CCCCC(=O)NCC(=O)N[C@H]3CSSC[C@@H]4NC(=O)[C@H](CCCNC(=N)N)NC(=O)[C@@H]5CCCN5C(=O)[C@H](CC(=O)O)NC(=O)[C@H](CO)NC(=O)[C@H](CSSC[C@@H](C(=O)N[C@@H](CCCNC(=N)N)C(=O)O)NC(=O)[C@H](CCCNC(=N)N)NC(=O)[C@H](Cc5ccc(O)cc5)NC(=O)[C@H](CCCNC(=N)N)NC4=O)NC3=O)c3ccccc3C2(C)C)C(C)(C)c2ccccc21 | Nicotinic acetylcholine receptor alpha9/alpha10 (Rattus norvegicus, UniProt P43144+Q9JLB5) | ACh-evoked current, antagonist, two-electrode voltage clamp | Xenopus oocytes | holding potential -80 mV, with: ACh 100 µM | 5 ± 0.8 |
| C[C@@H](O)[C@@H]1NC(=O)[C@@H]2CSSC[C@H](N)C(=O)N[C@@H](CCCCN)C(=O)N[C@@H](CCCNC(=N)N)C(=O)N[C@@H](CCCCN)C(=O)NCC(=O)N[C@@H](CO)C(=O)N[C@@H](CO)C(=O)N[C@H]3CSSC[C@H](NC(=O)[C@H](CO)NC(=O)CNC1=O)C(=O)N[C@@H](CCCNC(=N)N)C(=O)N[C@@H](CC(N)=O)C(=O)NCC(=O)N[C@@H](CCCCN)C(=O)N[C@H](C(N)=O)CSSC[C@H](NC(=O)[C@H](CC(=O)O)NC(=O)[C@H](Cc1ccc(O)cc1)NC(=O)[C@H](CO)NC(=O)[C@H]([C@@H](C)O)NC(=O)[C@H](CCCNC(=N)N)NC(=O)[C@H](CCCNC(=N)N)NC3=O)C(=O)N2 | Cacna1b with α2δ, β3 subunits | Ba2+ current, inhibitor, whole-cell patch clamp |  | with: Ba2+ 10 mM | 14.4 |
| C[C@@H](O)[C@@H]1NC(=O)[C@H]2NC(=O)[C@@H](NC(=O)CN)CSSC[C@H](NC(=O)[C@H](CCCNC(=N)N)NC(=O)[C@@H]3CCCN3C(=O)[C@H](CC(=O)O)NC1=O)C(=O)N[C@@H](CCCNC(=N)N)C(=O)N[C@@H](Cc1ccc(O)c(I)c1)C(=O)N[C@@H](CCC(N)=O)C(=O)N[C@H](C(=O)N[C@H](CC(=O)N[C@@H](CCCCN)C(=O)O)Cc1ccc(O)cc1)CSSC2(C)C | Neuronal acetylcholine receptor; alpha9/alpha10 (Homo sapiens, UniProt Q9GZZ6+Q9UGM1) | ion current, antagonist, two-electrode voltage clamp | Xenopus oocytes | with: 100 µM acetylcholine | 0.34 |
| O=C(c1ccc(Cl)cc1)n1cnc2ccccc21 | Enoyl-[acyl-carrier-protein] reductase [NADH] |  |  |  | > 100000 |
| CC[C@H](C)[C@H](NC(=O)[C@H](C)NC(=O)[C@H](CCC(=O)O)NC(=O)[C@H](CCC(=O)O)NC(=O)[C@H](CC(C)C)NC(=O)[C@H](CCCCN)NC(=O)[C@H](CCCCN)NC(=O)[C@H](CCSC)NC(=O)[C@H](CCC(=O)O)NC(=O)[C@H](Cc1ccc(O)cc1)NC(=O)[C@H](CCC(=O)O)NC(=O)[C@H](CC(C)C)NC(=O)[C@H](CC(=O)O)NC(=O)[C@H](CC(C)C)NC(=O)[C@H](Cc1ccccc1)NC(=O)[C@H](Cc1ccccc1)NC(=O)[C@@H](NC(=O)[C@H](CC(N)=O)NC(=O)[C@@H](NC(=O)[C@H](CCC(N)=O)NC(=O)[C@H](CC(=O)O)NC(=O)[C@H](CC(C)C)NC(=O)[C@@H](N)CO)[C@@H](C)CC)C(C)C)C(=O)N[C@@H](CCCCN)C(=O)N[C@@H](CCCCN)C(=O)N[C@@H](CC(C)C)C(=O)N[C@@H](CCC(=O)O)C(=O)N[C@@H](CCC(=O)O)C(=O)N[C@H](C(=O)N[C@@H](Cc1ccc(O)cc1)C(=O)N[C@H](C(=O)N[C@@H](CC(=O)O)C(=O)N[C@@H](CC(C)C)C(=O)N[C@@H](CCCCN)C(=O)N[C@@H](CCC(=O)O)C(=O)N[C@@H](CC(C)C)C(=O)O)[C@@H](C)CC)[C@@H](C)O | Spike glycoprotein Beta variant | cell-cell fusion, inhibitor, luciferase fusion | 293T donor, Huh-7 target | 16 h, 37 °C, dual mutations | 128 |
